Published values from different studies.
A part holds a random share of what one study measured.

Block 1 — method: aptamer microarray, sandwich; molecule type: DNA with 2'F-ANA; medium: in vitro; tested at: 200 nM; together with: Cy3 exosite-II aptamer, 400 nM; direction: higher = stronger binding; sequence: GGTTGGTGTGGTTGG
Target: Prothrombin, mature alpha-thrombin (F2, Homo sapiens, UniProt P00734)
Setting: whole 15-mer aptamer, many near background
For `2'F-ANA at 4 5 6 8 9 12 13 14`, “mean fluorescence intensity” read 46.6 a.u.
For `2'F-ANA at 10 11 12 13 15`, “mean fluorescence intensity” read 275 a.u.
For `2'F-ANA at 1 2 6 10 11 12 13 14`, “mean fluorescence intensity” read 48.4 a.u.
`2'F-ANA at 2 5 7 8 9 12 13 14 15` — result for “mean fluorescence intensity”: 55 a.u.
`2'F-ANA at 1 3 4 5 9 13 14 15`: “mean fluorescence intensity” 177 a.u.
For `2'F-ANA at 1 2 4 6 8 11 12 13 14`, “mean fluorescence intensity” read 54.1 a.u.

Block 2 — method: protein-binding microarray; molecule type: hairpin DNA; medium: in vitro; tested at: not given; reference: not given; direction: higher = stronger binding; all sequences stand within: GAGGCCG … CGGCCTCACACTC
Target: Cyclic AMP-responsive element-binding protein 1, full length (CREB1, Homo sapiens, UniProt P16220, residues 1-327)
UniProt P16220, sequence (whole entry, looked up): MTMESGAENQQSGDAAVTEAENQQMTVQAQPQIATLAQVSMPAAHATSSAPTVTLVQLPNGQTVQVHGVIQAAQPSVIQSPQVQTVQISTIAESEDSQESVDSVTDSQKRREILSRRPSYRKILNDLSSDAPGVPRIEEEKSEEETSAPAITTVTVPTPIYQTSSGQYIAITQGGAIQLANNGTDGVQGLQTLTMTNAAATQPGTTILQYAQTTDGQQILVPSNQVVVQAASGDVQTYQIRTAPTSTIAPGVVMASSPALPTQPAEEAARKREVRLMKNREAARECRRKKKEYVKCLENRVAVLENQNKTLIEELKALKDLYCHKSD
Setting: whole hairpin DNA, median over replicate spots
With `ACGACGTCCGGCCTCCTGGCCGGACGTCGT (5mC at 9 15 28 35)` the median fluorescence was 3190 a.u.
For `GATGACCGCAGCCTCCTGGCTGCGGTCATC (5mC at 14 30)`, the median fluorescence was 2850 a.u.
`ACGCCGTCGTGCCTCCTGGCACGACGGCGT (5mC at 9 15 29 35)` has a median fluorescence of 3010 a.u.
With `GCTGACGTCGGCCTCCTGGCCGACGTCAGC (5mC at 16 28)` the median fluorescence was 5210 a.u.
The median fluorescence of `GGTGACGTCAGCCTCCTGGCTGACGTCACC` is reported as 18700 a.u.

Block 3 — method: RNA Bind-n-Seq; molecule type: RNA; medium: in vitro; tested at: 200 nM; setting: whole 134-nt RNA, ends assumed; together with: 150 mM KCl; reference: input library; direction: higher = stronger binding
Target: Ras GTPase-activating protein-binding protein 1, full length (G3BP1, Homo sapiens, UniProt Q13283)
UniProt Q13283, sequence (whole entry, looked up): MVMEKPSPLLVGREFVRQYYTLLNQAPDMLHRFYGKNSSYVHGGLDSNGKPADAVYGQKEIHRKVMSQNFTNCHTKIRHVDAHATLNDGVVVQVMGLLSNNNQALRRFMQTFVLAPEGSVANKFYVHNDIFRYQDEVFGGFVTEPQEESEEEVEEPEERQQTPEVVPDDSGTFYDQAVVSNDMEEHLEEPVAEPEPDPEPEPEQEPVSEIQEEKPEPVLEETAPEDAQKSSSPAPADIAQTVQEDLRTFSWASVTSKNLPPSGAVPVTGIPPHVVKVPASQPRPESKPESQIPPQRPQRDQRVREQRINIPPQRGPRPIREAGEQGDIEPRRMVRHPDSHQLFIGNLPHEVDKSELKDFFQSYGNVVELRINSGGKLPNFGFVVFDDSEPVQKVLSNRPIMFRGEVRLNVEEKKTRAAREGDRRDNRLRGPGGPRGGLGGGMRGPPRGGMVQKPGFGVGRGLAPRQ
`GGGAGUUCUACAGUCCGACGAUCUGGGAGGUGGAUUUUGUUUAUUUUUUUAGCUCAUUUCCAGAGGUGGGAAUUUUUUUUUAAUAUGUGUCAUGAAUAAAGUUGUUUUUGAAAUGGAAUUCUCGGGUGUCAAGG` has a log2 enrichment of -0.354.
With `GGGAGUUCUACAGUCCGACGAUCCACAGACAACACGCACCCACACAGACACAGAGGGAAGGGGUUGGGAUGGGGACAGGGUGCACAGCAGGGCAAAGUAGGACCCCAGCCCCUUGGAAUUCUCGGGUGUCAAGG` the log2 enrichment was 2.
`GGGAGUUCUACAGUCCGACGAUCCCUGUGCUACACAUCGUAUGUACCGAAUCGGGGUUUUUUUGGGGAAAAAGGGGUUUGGGGAAAGUAUUAUGUUACGCCGUUCGGAUCUGCUGGAAUUCUCGGGUGUCAAGG` has a log2 enrichment of 0.145.
For `GGGAGUUCUACAGUCCGACGAUCCUCAAGUCCUGUGCUACACAUCGUAUGUACCGAAUCGGAAAGGUUUGGAAAGGAAAGUAUUAUGUUACGCCGUUCGGAUCUGCACUUCCAUGGAAUUCUCGGGUGUCAAGG`, the log2 enrichment was -0.577.

Further values, each from its own experiment
The fold induction of `PhoQ, residues 284 288 289 292 302 303 SIHLQL` is reported as 15.4 (PhoP, residues 12 14 15 18 19 NMSFL (Escherichia coli, UniProt P23836); Sort-seq, item: YFP reporter; E. coli; PhoQ-PhoP variant library, together with: 10 µM Mg2+; reference: high Mg2+ state, higher = stronger signaling).

A few entries again (block 1):
For `2'F-ANA at 4 5 6 8 9 12 13 14`, “mean fluorescence intensity” read 46.6 a.u.
`2'F-ANA at 2 5 7 8 9 12 13 14 15` — result for “mean fluorescence intensity”: 55 a.u.
